Measurements gathered from unrelated publications.
Each line is one published result; not all experiments were run side by side. ± marks the error that the study gave.
Target: Acetylcholinesterase (ache, Electrophorus electricus, UniProt O42275)
Sequence of UniProt O42275 (whole entry, looked up): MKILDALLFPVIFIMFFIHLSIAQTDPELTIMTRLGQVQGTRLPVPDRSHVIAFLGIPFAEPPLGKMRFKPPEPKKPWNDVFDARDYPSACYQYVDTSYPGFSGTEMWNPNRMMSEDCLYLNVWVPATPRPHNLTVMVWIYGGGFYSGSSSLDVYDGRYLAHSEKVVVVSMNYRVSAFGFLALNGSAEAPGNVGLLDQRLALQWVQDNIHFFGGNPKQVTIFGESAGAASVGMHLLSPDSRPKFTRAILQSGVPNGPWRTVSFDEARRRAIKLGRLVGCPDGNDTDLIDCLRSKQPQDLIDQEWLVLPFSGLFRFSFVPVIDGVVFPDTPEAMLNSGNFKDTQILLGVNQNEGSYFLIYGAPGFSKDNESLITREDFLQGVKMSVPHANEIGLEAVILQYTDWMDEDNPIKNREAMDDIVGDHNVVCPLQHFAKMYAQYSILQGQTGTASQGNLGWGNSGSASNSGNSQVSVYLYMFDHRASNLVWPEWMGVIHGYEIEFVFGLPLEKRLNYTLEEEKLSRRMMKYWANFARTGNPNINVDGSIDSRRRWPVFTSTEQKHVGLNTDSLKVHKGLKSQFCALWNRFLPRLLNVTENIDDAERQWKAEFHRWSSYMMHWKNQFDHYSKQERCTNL
Read-out: enzyme activity
Action: inhibitor

Cc1cc(C)cc(-n2cc(CCS(=O)(=O)NCCc3c[nH]c4ccc(Cl)cc34)nn2)c1  IC50 (Ellman): 91 nM
CCCCN(C=O)c1c(CC)nc2ccc(C(=O)N(C)Cc3ccco3)cn12  IC50 (Ellman): 12500 nM
CCCCc1nc2ccc(/N=N/c3ccc(Cl)cc3)cc2c(-c2ccccc2)c1I  IC50 (Ellman; pH 7.4): 6170 nM
O=S(=O)(N/N=C/c1ccc(OS(=O)(=O)c2ccc(Cl)cc2)cc1)c1ccc(Cl)cc1  IC50 (Ellman): 84.4 nM
O=C(O)C(/C=C/c1ccc(Cl)cc1)=N\Nc1nc(-c2ccc(Br)cc2)cs1  IC50 (Ellman): 117 nM
CCc1nc2ccc(C(=O)NCCN3CCOCC3)cn2c1N(C)C(=O)C1CCCCC1  IC50 (Ellman): 7340 nM
O=S(=O)(CCc1cn(-c2cnc3ccccc3c2)nn1)N1CCc2ccccc2C1  IC50 (Ellman): 22 nM
CCCCN(C)c1c(C)nc2ccc(C(=O)N3CCC[C@@H](C(N)=O)C3)cn12  IC50 (Ellman): 4490 nM
O=S(=O)(N/N=C/c1ccc(OS(=O)(=O)c2cc(Cl)ccc2Cl)cc1)c1ccc(Cl)cc1  IC50 (Ellman): 183 nM
Cc1ccc(-c2csc(NN=C(C=Cc3c(Cl)cccc3Cl)C(=O)O)n2)cc1  IC50 (Ellman): 509 nM
CCN(C)C(=O)Oc1ccc(/C=C/C(=O)N2CCc3ccccc3C2)cc1OC  IC50 (Ellman): 12300 nM
O=C(O)C(/C=C/c1ccc(Cl)cc1)=N\Nc1nc(-c2ccc(Cl)cc2)cs1  IC50 (Ellman): 481 nM
C=CCNc1nc2cc(-c3ccc(OCCCNC)nc3)sc2c(=O)n1C  IC50: 200 ± 60 nM
O=[N+]([O-])c1ccc(S(=O)(=O)Oc2ccc(/C=N/NS(=O)(=O)c3cc(Cl)ccc3Cl)cc2)cc1  IC50 (Ellman): 72.1 nM
O=C(O)C(/C=C/c1ccc(Cl)cc1)=N\Nc1nc(-c2ccc(F)cc2)cs1  IC50 (Ellman): 954 nM
COc1ccc(S(=O)(=O)Oc2ccc(/C=N/NS(=O)(=O)c3cc(Cl)ccc3Cl)cc2)cc1  IC50 (Ellman): 34.9 nM
CCc1nc2ccc(C(=O)NCCCn3ccnc3)cn2c1N(C)Cc1ccc(N(C)C)cc1  IC50 (Ellman): 3560 nM
Cc1ccc(S(=O)(=O)Oc2ccc(/C=N/NS(=O)(=O)c3ccc(Cl)cc3)cc2)cc1  IC50 (Ellman): 17.3 nM
CCCCNC(=O)c1ccc2nc(CC)c(N(C)Cc3ccc(OC)cc3)n2c1  IC50 (Ellman): 3360 nM
Cc1cc(C)cc(-n2cc(CCS(=O)(=O)N3CCc4ccccc4C3)nn2)c1  IC50 (Ellman): 20 nM
O=S(=O)(N/N=C/c1ccc(OS(=O)(=O)c2ccc(Cl)cc2)cc1)c1cc(Cl)ccc1Cl  IC50 (Ellman): 55.9 nM

A few entries again:
O=C(O)C(/C=C/c1ccc(Cl)cc1)=N\Nc1nc(-c2ccc(Br)cc2)cs1  IC50 (Ellman): 117 nM
CCc1nc2ccc(C(=O)NCCN3CCOCC3)cn2c1N(C)C(=O)C1CCCCC1  IC50 (Ellman): 7340 nM
O=S(=O)(CCc1cn(-c2cnc3ccccc3c2)nn1)N1CCc2ccccc2C1  IC50 (Ellman): 22 nM
